Assay results pooled from the literature.
Every numbered part comes from another study and shows a few of its results, in no order. Substitutions count along the parent as printed.

Series 1
Target: RING finger protein unkempt homolog, zinc fingers 1-6, GST-SBP tag (UNK, Homo sapiens, UniProt Q9C0B0, residues 30-357)
Method: RNA Bind-n-Seq
Form: RNA
Matrix: in vitro
Concentration: not given
Setting: RNA with constant flanks, human and mouse sites, ends assumed
Relative to: input RNA pool
Reading: higher = stronger binding
Constant ends, left off below: GGGAGUUCUACAGUCCGACGAUC … CAACAGAGGAUUGAGCAUCA
Construct (chain): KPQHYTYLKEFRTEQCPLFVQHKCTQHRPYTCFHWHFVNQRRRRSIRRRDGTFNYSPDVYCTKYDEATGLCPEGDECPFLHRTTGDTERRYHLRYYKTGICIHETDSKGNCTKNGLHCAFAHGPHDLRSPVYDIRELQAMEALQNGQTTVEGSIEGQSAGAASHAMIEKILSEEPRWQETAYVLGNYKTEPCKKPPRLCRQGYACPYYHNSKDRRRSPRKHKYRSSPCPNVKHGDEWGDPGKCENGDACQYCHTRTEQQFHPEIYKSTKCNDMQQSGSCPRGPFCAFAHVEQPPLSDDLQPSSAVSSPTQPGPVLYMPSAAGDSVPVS
Sequence | bound/input enrichment [ratio]
GUUAAAACUAAUCCUCAGGCUUCUGAGUCAGCAGACUCUAGUGAAACUGCAAACAGGAAAACUGAGACUAACACUGUAUCGCCAGCUGCUGCACAGCCACAAGCAGAUUGCCAAGAUAAC | 0.156
CAUCAGCUGUCUACACCACAAAAAGCAAGUCAACACCAAGUUCUGUUUUUGUUAUCAGAUGUAGCACAUGCUAAGAAUCCAACCCAUUCCAUUAAAAAAGUACCUACCUCUGCUUUAGUU | 0.308
AUGAAGGAGGCAUUUGGCUUUAUUGAAAGAGGUGAUGUUGUAAAAGAGAUAUUCUUUCACUAUAGUGAAUUUAAGGGUGACUUAGAAACCUUACAGCCUGGCGAUGAUGUGGAAUUCACA | 0.31
GCUGGAUAUGGAGACAUUUACCUCAAUGCUGGUCCCAUGUUGUUUAGUGGAGACAAGGACCAUAGAUUUGAAUAUAGCCAUGGUCCUAUUGCAGUCCUGGCAAACAGCAGUGACCCUUCC | 0.194
AUUUGAUACUAAUCUGUCUGUUUGUUUGUGGAUUUUGAGAAAUAUUUGCUUAACUACCCAAAUAGGAUUUCUGGUAUUAAAUGGCCUUUGGGUCCUAAAAGCUUUUUUUAACUUCUUGCU | 1.82
CCCAUGAUUUCUUCAGAAAUGAUUUUCUAGAAGUUGUGAACUUCUUGAAAAGCUUGACAUUAAAGAGUGAAGAUGAAAAGACUGAAUUUUUCAAAUUUCUGCUGGACCGAGUGAGCUGCC | 0.215
UUCGUUGGCUUCCUGGGCUGCUACGGGGCCAUCCAGGAAUCCCAGUGCCUGCUGGGGACGUUCUUCACCUGCCUGGUCAUCCUGUUUGCCUGUGAGGUGGCCGCCGGCAUCUGGGGCUUU | 0.0815
AAUGCAUGGAUGGAGACAGAAGCUGUGAACUACCAUGACGAAACAGGUGAGAUAAUGGAUAAUCUUAUGCUAGAAGCUGGAGAUGAUGCUGGAAAAGUGAAAUGGGUGGACAUCAAUGAU | 0.355

Series 2
Target: Ras GTPase-activating protein-binding protein 1, full length (G3BP1, Homo sapiens, UniProt Q13283)
Chain of UniProt Q13283 (whole entry, looked up): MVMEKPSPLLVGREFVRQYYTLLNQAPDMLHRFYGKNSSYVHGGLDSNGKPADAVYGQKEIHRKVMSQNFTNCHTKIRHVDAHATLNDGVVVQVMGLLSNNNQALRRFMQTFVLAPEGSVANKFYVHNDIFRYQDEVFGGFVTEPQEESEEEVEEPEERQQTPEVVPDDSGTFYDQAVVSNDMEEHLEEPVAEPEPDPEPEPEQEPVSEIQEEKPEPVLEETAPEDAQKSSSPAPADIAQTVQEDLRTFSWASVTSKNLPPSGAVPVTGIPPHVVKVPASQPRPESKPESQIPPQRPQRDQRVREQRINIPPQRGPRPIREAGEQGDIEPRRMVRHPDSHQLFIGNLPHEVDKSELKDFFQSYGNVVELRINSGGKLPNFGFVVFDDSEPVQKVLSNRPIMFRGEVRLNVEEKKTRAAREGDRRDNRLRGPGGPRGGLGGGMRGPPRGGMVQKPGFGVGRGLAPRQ
Method: RNA Bind-n-Seq
Form: RNA
Matrix: in vitro
Concentration: 200 nM
Setting: whole 134-nt RNA, ends assumed
With: 150 mM KCl
Relative to: input library
Reading: higher = stronger binding
Constant ends, left off below: GGGAGUUCUACAGUCCGACGAUC … UGGAAUUCUCGGGUGUCAAGG
Sequence | log2 enrichment
AAGUCCUGUGCUACACAUCGUAUGUACCGAAUCGGGGUGGGGUGGGGUUUUUGGGGAAAGUAUUAUGUUACGCCGUUCGGAUCUGCACUU | 0.586
ACCAUGCAGGUGGGCAUCUUUGGGAAGUGGGGCAAGGGGGGGAUAGGGAGGGGGGUAACACUUUGGGAACAGGUGGUCCCAGGUCUUUUC | 1.19
AAGUCCUGUGCUACACAUCGUAUGUACCGAAUCGGGGAGGGGUGGGGAAAAAGGGGAAAGUAUUAUGUUACGCCGUUCGGAUCUGCACUU | 0.414
AAUUCUCAUUUCUCGACAUAAAGCCUUGUCUAAAGUGAGAUGUUUUCCAGGUCAUACAUAGGUUUCUCCCUGGGGUAAUUGGAAGUUCUU | -1.71
CAAGUCCUGUGCUACACAUCGUAUGUACCGAAUCGGGGUUUGGGUUUGGGUUUGGAAAGUAUUAUGUUACGCCGUUCGGAUCUGCACUUC | -0.234
CACAGACAACACGCACCCACACAGACACAGAGGGAAGGGGUUGGGAUGGGGACAGGGAGCACAGCAGGGCGGGGUAGGACCCCAGCCCCU | 1.75
GCAGGAAGUAAAAACAAAUGGAAAUGCUUCGGAUAGUGGCAGUGGUGGGGGUUGCUAAGGAAAGGGUGGGAUGGGAGUGGGUAAAGAGUU | 0.704
CAAGUCCUGUGCUACACAUCGUAUGUACCGAAUCGGGAGGGUGGGUUUUUUUGGGAAAGUAUUAUGUUACGCCGUUCGGAUCUGCACUUC | 0.445
UAACUUUAGAGGAGGAUCUGAUAGAUAUGGCAGUGGACGUGGAUUUGGGGAUGGCUAUAAUGGGUAUGGAGGAGGACCUGGAGGUGGCAA | 0.311
GUCCUGUGCUACACAUCGUAUGUACCGAAUCGGGAAAAAGGGUUUGGGUUUUUUUGGGAAAGUAUUAUGUUACGCCGUUCGGAUCUGCAC | -0.447
AGUCCUGUGCUACACAUCGUAUGUACCGAAUCGGGAAAAAGGGUGGGUUUUUUUGGGAAAGUAUUAUGUUACGCCGUUCGGAUCUGCACU | 0.0612
UUACUAGAAAAGGCAGAAGCCCGUGAACGUGAAAGAGAAAAAGAAGAGGCUCGGAAGAUGAAACGAAAAGAAUCUGCAUUUAAGAGUAUG | -1.43
UCCUGUGCUACACAUCGUAUGUACCGAAUCGGGAAAAAAGGGAAAAAAGGGGAAAAAAGGAAAGUAUUAUGUUACGCCGUUCGGAUCUGC | -0.535

Series 3
Target: CCNF, cyclin fold, Cln2 fusion (human)
Method: yeast growth competition, sequencing
Matrix: yeast
Setting: strong parent motif
Relative to: not given
Reading: higher = stronger binding
Parent: CDC6 docking peptide (human); TLKGRRLVFDNQL
Variant | normalised enrichment score
T1F | 10.1
D10Y | 8.54
N11T | 8.75
T1C | 8.76
T1W | 9.29
L2Y | 7.85
V8F | 9.81
F9R | 0.18
K3C | 8.16
L7P | 0.468
V8Q | 7.66
N11A | 9.27
D10T | 8.66
L13N | 8.42
Q12H | 9.85
K3D | 4.29
Q12D | 8.4

Mixed results
Molecule | target | test | system | conditions | scale | measurement | value
PhoQ, residues 284 288 289 292 302 303 TAVSDG | PhoP, residues 12 14 15 18 19 AQCLL (Escherichia coli, UniProt P23836) | Sort-seq, measured: YFP reporter | E. coli | PhoQ-PhoP variant library, with: 10 µM Mg2+ | relative to: high Mg2+ state, higher = stronger signaling | fold induction | 0.536

Some of these lines once more (series 1):
Sequence | bound/input enrichment [ratio]
AUGAAGGAGGCAUUUGGCUUUAUUGAAAGAGGUGAUGUUGUAAAAGAGAUAUUCUUUCACUAUAGUGAAUUUAAGGGUGACUUAGAAACCUUACAGCCUGGCGAUGAUGUGGAAUUCACA | 0.31
GCUGGAUAUGGAGACAUUUACCUCAAUGCUGGUCCCAUGUUGUUUAGUGGAGACAAGGACCAUAGAUUUGAAUAUAGCCAUGGUCCUAUUGCAGUCCUGGCAAACAGCAGUGACCCUUCC | 0.194
AUUUGAUACUAAUCUGUCUGUUUGUUUGUGGAUUUUGAGAAAUAUUUGCUUAACUACCCAAAUAGGAUUUCUGGUAUUAAAUGGCCUUUGGGUCCUAAAAGCUUUUUUUAACUUCUUGCU | 1.82
CCCAUGAUUUCUUCAGAAAUGAUUUUCUAGAAGUUGUGAACUUCUUGAAAAGCUUGACAUUAAAGAGUGAAGAUGAAAAGACUGAAUUUUUCAAAUUUCUGCUGGACCGAGUGAGCUGCC | 0.215
UUCGUUGGCUUCCUGGGCUGCUACGGGGCCAUCCAGGAAUCCCAGUGCCUGCUGGGGACGUUCUUCACCUGCCUGGUCAUCCUGUUUGCCUGUGAGGUGGCCGCCGGCAUCUGGGGCUUU | 0.0815
